{"data": "Assay results pooled from the literature", "target": "Cytochrome P450 2C19 (CYP2C19, Homo sapiens, UniProt P33261)", "mode": "inhibitor", "sequence of UniProt P33261 (whole entry, looked up)": "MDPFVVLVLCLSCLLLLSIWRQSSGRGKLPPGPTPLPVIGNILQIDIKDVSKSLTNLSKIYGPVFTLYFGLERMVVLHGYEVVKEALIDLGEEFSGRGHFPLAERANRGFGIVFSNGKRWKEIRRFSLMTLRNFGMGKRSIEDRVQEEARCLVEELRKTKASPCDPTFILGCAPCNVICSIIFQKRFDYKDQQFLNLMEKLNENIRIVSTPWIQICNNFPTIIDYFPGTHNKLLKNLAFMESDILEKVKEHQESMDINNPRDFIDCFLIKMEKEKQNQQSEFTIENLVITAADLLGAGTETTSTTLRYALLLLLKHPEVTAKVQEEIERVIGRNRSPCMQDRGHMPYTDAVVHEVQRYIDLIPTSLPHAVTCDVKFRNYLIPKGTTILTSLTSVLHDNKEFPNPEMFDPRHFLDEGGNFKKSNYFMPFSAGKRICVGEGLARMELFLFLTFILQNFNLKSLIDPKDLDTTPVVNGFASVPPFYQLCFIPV"}
{"Compound": "C[C@](C(=O)NC1CCC(F)(F)CC1)(c1cncnc1)N(C(=O)[C@H](F)Cl)c1ccc(OC(F)(F)F)cc1", "assay": "enzyme activity", "setting": "10 (unit not given)", "IC50 [µM]": "> 50"}
{"Compound": "Cc1ccc(OCC(=O)N(Cc2cccs2)c2ccn[nH]2)cc1", "assay": "enzyme activity", "test system": "human, liver microsomes", "IC50 [µM]": 1.3}
{"Compound": "C=CC(=O)Nc1cc(Nc2nccc(-c3cn(C)c4ccccc34)n2)c(OCC(F)(F)F)nc1N(C)CCN(C)C", "assay": "enzyme activity", "test system": "human, liver microsomes", "IC50 [µM]": "> 100"}
{"Compound": "O=C(O)C(O)Cc1ccc(O)c(O)c1 (stereo not shown)", "assay": "enzyme activity, fluorescence", "IC50 [µM]": 67}
{"Compound": "C[C@H]1CN(C(=O)c2cn(-c3ccnc(N)n3)c3cc(C#CC4(O)CCCCC4)ccc23)CCN1", "assay": "enzyme activity", "test system": "human, liver microsomes", "setting": "10 min", "IC50 [µM]": 42.3}
{"Compound": "C[C@@H](c1ccn(Cc2ccc(OC(F)(F)F)cc2)n1)[C@](O)(Cn1cnnn1)c1ccc(F)cc1F", "assay": "enzyme activity", "test system": "human, liver microsomes", "IC50 [µM]": 1.39}
{"Compound": "O=c1nc(NO)ccn1[C@@H]1O[C@H](CO)[C@@H](O)[C@H]1O", "assay": "enzyme activity", "test system": "human, liver microsomes", "setting": "1 h, pH 7.4", "IC50 [µM]": "> 100"}
{"Compound": "Cc1cc(/C=C/C#N)cc(C)c1Oc1nc(NC2CCN(Cc3ccc(S(C)(=O)=O)cc3)CC2)nc2ncccc12", "assay": "enzyme activity", "test system": "human, liver microsomes", "setting": "10 min", "IC50 [µM]": 8.47}
{"Compound": "O=C(O)c1ccc(/C=C2\\SC(=S)N(Cc3cccc(C(F)(F)F)c3)C2=O)cc1", "assay": "enzyme activity", "test system": "human, liver microsomes", "IC50 [µM]": "> 50"}
{"Compound": "COC(=O)c1ccc2c(c1)NC(=O)/C2=C(\\Nc1ccc2c(c1)CCN2C(=O)CN1CCOCC1)c1ccccc1", "test system": "recombinant enzyme", "setting": "10 min, with: S-mephenytoin 30 µM", "IC50 [µM]": 73.4}
{"Compound": "COc1ccc2c(c1OCc1ccccc1)C[C@@H](C(=O)O)N(c1nc3ccc(C#N)cc3o1)C2", "assay": "enzyme activity", "test system": "human, liver microsomes", "setting": "15 min, pH 7.4", "IC50 [µM]": "> 50"}
{"Compound": "CCC(=O)N(C)c1ccc(Cl)c(Cl)c1", "assay": "enzyme activity", "test system": "human, liver microsomes", "setting": "1 h", "IC50 [µM]": "> 25"}
{"Compound": "C[C@@H](c1ccn(Cc2ccc(Cl)c(Cl)c2)n1)[C@](O)(Cn1cnnn1)c1ccc(F)cc1F", "assay": "enzyme activity", "test system": "human, liver microsomes", "IC50 [µM]": 0.728}
{"Compound": "NC(=O)c1c(F)ccc(OCc2nc3cc(Cl)cnc3s2)c1F", "assay": "enzyme activity, fluorescence", "IC50 [µM]": "> 33.7"}
{"Compound": "O=C(NC1CCC(F)(F)CC1)C(c1cncnc1)N(C(=O)C(F)Cl)c1ccc(-c2cncs2)cc1 (stereo not shown)", "assay": "enzyme activity", "setting": "10 (unit not given)", "IC50 [µM]": 9.5}
{"Compound": "O=C1c2oc3cc(O)c(O)cc3c2C(=O)c2oc3cc(O)c(O)cc3c21", "assay": "enzyme activity", "test system": "human, liver microsomes", "setting": "1 h, pH 7.4", "IC50 [µM]": 4.9}
